# Published values of several laboratories.
# Parts stem from different laboratories: compare values within a part only. Several values in a cell are separate wells, animals, samples, runs or records.
# UniProt P00519, sequence (whole entry, unmodified, looked up): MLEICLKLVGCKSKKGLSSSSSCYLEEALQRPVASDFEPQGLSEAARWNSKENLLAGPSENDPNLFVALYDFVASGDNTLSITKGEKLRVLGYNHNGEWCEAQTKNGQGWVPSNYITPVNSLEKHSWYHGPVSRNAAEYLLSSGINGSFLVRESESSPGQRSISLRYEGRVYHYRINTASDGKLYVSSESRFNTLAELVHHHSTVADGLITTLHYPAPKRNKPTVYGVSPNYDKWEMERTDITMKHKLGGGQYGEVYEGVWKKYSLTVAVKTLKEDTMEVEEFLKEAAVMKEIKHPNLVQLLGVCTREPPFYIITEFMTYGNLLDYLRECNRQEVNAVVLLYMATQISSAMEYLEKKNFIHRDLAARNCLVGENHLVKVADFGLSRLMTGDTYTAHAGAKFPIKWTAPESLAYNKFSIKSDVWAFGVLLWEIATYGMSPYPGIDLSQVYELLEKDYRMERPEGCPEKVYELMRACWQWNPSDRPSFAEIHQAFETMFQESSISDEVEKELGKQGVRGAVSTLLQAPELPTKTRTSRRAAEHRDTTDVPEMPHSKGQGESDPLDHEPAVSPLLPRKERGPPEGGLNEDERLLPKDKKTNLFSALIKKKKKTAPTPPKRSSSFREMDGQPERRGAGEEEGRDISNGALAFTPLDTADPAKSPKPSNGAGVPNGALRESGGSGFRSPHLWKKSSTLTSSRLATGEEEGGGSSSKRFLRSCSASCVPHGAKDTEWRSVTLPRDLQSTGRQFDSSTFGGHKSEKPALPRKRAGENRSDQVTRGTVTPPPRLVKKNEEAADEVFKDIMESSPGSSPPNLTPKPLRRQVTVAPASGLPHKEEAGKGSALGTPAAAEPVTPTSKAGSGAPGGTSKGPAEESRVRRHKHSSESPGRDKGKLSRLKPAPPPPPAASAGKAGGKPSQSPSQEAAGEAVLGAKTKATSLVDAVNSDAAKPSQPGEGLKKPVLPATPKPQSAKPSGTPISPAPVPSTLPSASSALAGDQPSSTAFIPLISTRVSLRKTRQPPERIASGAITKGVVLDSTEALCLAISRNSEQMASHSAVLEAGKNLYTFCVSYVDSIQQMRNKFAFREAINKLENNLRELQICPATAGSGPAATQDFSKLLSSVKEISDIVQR
# UniProt Q13554, sequence (whole entry, looked up): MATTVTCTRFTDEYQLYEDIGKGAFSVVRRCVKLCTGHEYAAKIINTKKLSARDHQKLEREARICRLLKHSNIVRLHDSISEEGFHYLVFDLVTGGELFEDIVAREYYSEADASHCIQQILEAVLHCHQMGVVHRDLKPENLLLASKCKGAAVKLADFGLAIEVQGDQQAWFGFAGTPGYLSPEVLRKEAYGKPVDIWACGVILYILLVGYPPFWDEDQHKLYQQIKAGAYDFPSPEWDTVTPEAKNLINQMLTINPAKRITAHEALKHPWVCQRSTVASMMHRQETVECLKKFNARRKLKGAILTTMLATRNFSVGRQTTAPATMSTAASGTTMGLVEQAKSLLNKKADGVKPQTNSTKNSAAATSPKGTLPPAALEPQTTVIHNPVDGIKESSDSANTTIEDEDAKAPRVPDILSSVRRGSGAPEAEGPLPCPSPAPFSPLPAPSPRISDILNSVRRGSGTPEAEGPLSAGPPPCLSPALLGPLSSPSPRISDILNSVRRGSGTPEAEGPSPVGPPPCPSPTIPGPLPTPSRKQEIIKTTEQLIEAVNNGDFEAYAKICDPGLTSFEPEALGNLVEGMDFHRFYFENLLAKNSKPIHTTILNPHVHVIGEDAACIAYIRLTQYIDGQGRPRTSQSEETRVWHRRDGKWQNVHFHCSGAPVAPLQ
# UniProt P51957, sequence (whole entry, looked up): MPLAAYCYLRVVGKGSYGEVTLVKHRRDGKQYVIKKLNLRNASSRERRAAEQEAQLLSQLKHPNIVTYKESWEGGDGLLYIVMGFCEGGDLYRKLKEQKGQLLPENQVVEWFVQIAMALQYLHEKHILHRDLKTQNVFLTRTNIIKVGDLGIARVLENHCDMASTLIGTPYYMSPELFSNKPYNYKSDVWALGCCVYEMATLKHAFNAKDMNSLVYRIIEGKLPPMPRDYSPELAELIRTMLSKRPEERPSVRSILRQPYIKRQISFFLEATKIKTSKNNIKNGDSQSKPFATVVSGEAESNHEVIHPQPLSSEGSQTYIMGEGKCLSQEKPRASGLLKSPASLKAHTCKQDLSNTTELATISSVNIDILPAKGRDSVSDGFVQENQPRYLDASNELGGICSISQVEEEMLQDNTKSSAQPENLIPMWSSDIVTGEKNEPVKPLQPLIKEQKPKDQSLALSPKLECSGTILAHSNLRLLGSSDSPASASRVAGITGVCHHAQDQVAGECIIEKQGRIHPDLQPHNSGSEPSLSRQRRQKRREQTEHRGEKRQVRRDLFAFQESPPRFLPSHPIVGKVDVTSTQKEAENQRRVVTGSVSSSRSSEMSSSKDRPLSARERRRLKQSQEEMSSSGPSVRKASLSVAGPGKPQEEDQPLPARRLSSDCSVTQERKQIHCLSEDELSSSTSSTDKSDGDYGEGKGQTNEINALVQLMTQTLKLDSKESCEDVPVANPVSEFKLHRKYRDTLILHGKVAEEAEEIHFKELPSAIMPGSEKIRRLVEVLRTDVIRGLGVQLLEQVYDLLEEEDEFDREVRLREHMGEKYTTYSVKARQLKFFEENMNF
# UniProt P15056, sequence (whole entry, unmodified, looked up): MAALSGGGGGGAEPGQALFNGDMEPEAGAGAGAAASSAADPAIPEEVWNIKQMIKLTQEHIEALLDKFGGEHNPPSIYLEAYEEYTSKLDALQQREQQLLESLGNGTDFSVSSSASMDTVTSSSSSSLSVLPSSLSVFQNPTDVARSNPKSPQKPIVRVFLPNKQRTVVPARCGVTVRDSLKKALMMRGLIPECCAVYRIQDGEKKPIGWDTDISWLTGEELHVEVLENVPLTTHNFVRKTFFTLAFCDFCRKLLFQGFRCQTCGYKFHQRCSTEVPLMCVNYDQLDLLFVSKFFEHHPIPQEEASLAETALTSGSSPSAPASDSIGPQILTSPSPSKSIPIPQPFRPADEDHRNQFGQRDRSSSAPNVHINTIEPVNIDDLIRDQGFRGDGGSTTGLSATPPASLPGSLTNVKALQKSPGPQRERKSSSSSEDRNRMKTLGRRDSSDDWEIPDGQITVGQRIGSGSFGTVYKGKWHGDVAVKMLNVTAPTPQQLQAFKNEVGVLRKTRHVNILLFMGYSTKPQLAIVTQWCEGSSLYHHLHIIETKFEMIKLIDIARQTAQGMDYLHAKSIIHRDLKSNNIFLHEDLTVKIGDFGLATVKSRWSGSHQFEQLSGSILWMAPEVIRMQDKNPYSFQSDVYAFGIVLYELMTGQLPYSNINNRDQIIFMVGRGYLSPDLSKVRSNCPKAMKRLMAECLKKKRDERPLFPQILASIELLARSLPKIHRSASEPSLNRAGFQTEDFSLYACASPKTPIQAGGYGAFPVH
# UniProt Q16584, sequence (whole entry, looked up): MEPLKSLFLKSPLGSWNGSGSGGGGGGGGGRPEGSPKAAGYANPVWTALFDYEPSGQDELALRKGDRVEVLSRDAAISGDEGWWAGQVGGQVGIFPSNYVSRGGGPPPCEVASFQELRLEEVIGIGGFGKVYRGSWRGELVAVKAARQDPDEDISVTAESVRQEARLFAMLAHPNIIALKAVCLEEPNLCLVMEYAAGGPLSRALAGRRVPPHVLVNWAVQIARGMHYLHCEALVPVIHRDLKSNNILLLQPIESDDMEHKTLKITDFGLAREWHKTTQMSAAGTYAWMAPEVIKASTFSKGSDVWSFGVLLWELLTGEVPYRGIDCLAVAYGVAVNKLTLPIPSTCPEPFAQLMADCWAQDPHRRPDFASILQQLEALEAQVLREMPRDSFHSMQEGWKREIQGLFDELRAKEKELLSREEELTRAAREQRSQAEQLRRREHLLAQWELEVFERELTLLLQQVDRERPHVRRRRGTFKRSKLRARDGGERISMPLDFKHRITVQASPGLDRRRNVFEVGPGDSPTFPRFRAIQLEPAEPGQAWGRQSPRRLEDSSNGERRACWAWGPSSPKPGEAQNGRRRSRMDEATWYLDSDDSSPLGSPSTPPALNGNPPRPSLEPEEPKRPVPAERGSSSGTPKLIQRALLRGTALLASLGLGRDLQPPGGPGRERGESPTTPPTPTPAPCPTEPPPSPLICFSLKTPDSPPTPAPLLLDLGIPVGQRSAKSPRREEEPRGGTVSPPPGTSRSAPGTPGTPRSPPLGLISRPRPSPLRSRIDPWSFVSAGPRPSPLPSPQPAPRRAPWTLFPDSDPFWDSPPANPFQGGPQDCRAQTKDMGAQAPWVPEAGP
# UniProt Q8WU08, sequence (whole entry, looked up): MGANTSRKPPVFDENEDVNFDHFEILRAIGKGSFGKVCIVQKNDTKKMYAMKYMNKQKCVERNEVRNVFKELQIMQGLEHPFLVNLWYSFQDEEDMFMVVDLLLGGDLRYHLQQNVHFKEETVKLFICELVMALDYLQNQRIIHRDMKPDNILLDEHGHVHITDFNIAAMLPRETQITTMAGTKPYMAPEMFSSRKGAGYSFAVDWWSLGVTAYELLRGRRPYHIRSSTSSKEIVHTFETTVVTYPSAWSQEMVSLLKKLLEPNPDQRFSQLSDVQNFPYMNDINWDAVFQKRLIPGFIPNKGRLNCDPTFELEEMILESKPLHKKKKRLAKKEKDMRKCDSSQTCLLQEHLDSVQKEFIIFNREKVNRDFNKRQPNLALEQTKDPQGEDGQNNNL

# Series 1
# Target: RNA binding protein fox-1 homolog 2, RRM domain, GST-SBP tag (RBFOX2, Homo sapiens, UniProt O43251-10, residues 100-194)
# Method: RNA Bind-n-Seq
# Molecule type: RNA
# Matrix: in vitro
# Concentration: 365 nM
# Setting: natural RNA segment, single round, ends assumed
# Relative to: no-protein control
# Reading: higher = stronger binding
# All sequences stand within: GGGAGUUCUACAGUCCGACGAUC … UGGAAUUCUCGGGUGCCAA
# Target sequence (chain): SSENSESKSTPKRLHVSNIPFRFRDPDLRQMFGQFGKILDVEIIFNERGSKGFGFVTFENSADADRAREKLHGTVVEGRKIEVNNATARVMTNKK
Strand,RBNS enrichment (R)
UCCUUCCCACAGUACCUUAAGAUUGCCCAGCCUCCCUGCUCUAGUGGCUGGGGCUCCCUUACCAGAGGGGCAAGUCUGGCCCCUCAGUCCUUAACUGGAAAGUGACCCUC,0.747
UUAUAAGAUUUCCUCUGACUUGUUUCUUUGUGGUUCCCAAAAAAAAAAAAAAAACCUCAAAAAUUAAGUGCUAUUUCAUUCCUUCUUUCUCUAUCAAAAGAAAGGGAAGG,0.551
CAGAGAAGCAUCCUCCACAUCCUGUGUCAGAAACCCUGGUCUCCGUGGCACUUGUAACUCACCGUGCUGUCUUCUGGUCUGUGUGUGUUCUUCAAGCCAGCUCUAGGCUU,1.46
UUACAUGAUGUGUGAUUUAGGGCUUAGUUAAUUCUCUAGAAUUCAAAAACUAUUAUUGAUGUAUUAAAAGAAAUUACGGUACCACGUUGAUUAGUCUGAAUGUUUGCAGG,4.3
AAAACUAGGGUGGUUUGCAGGUAUCCAAAAAUAUGCUAUGACAGAACAAAAUUGUGGUAUUCAUGACCCAUUUAAUUUACUGAAAAAUCAUAACUGCUGUCCUGCCUGCU,0.283
CUGGCCCUGAGGGUUUGGAAUCUGACCGGGUGAAGGCACCACCGGCGAGCUUUUGAAAGCAACAGGGCCUAGCCUGCAAACAGUUAUCUUGGGAAACUGUCCAGCCACGU,0.546
CCUUUUUCCUACCUCUCUCUGUUCGGUUUAGAAACUGAUCAUAAGUCAUAUGUUGUUUGGCAUUCUGCCUAACCCAGUCUCCCUUCCCAGAGUCAUGGACCUCUCUGUUG,0.909
GGAAAUAAAUUCACUAUUAAUUCAUGUCUUAAGUUACUUGGGUUAAAACACUUUCAGCCACCCAGAUUAAUUAAAGUGGAGCAGUGGAGCCCCUGGCUGGGAGAUGGCCU,0.375

# Series 2
# Cell line: mouse MPNST tumor cells
# Method: high-content immunofluorescence imaging
# Measured: nuclear SOX9
# Concentration: 10 µM
# Time: 12 h
# Setting: mean of 2 replicates
# Relative to: DMSO control
# Reading: higher = more nuclear SOX9
Structure (SMILES),nuclear SOX9 intensity
Nc1ccn([C@@H]2O[C@H](CO)[C@@H](O)[C@@H]2O)c(=O)n1,128 % of DMSO and 107 % of DMSO
CCCCN(CCCC)CC(O)c1cc(Cl)cc2c1-c1ccc(Cl)cc1/C2=C/c1ccc(Cl)cc1 (stereo not shown),89.5 % of DMSO
COC(=O)/C=C/c1cccc(N(Cc2ccc(-c3ccc(N(C)C)cc3)cc2)C(=O)C2CCCCC2)c1,111 % of DMSO

# Series 3
# Compound: CCOC(=O)c1cc2cc(-c3cc(C(=O)NCc4ccc(C(=O)O)cc4)nn3C)ccc2[nH]1
# Concentration: 0.1 µM
target,effect on,method,remaining binding
"5'-AMP-activated protein kinase catalytic subunit alpha-2 (PRKAA2, Homo sapiens, UniProt P54646)",cell-free assay,competition with immobilised ligand,88%
"Rho-associated protein kinase 2 (ROCK2, Homo sapiens, UniProt O75116)",cell-free assay,competition with immobilised ligand,85%
"Serine/threonine-protein kinase B-raf (BRAF, Homo sapiens, UniProt P15056, V600E)",cell-free assay,competition with immobilised ligand,100%
"Serine/threonine-protein kinase 25 (STK25, Homo sapiens, UniProt O00506)",cell-free assay,competition with immobilised ligand,100%
"Mitogen-activated protein kinase kinase kinase kinase 1 (MAP4K1, Homo sapiens, UniProt Q92918)",cell-free assay,competition with immobilised ligand,100%
"Homeodomain-interacting protein kinase 3 (HIPK3, Homo sapiens, UniProt Q9H422)",cell-free assay,competition with immobilised ligand,81%
"Calcium/calmodulin-dependent protein kinase type II subunit beta (CAMK2B, Homo sapiens, UniProt Q13554)",cell-free assay,competition with immobilised ligand,96%
"Serine/threonine-protein kinase Nek4 (NEK4, Homo sapiens, UniProt P51957)",cell-free assay,competition with immobilised ligand,81%
"Interleukin-1 receptor-associated kinase 3 (IRAK3, Homo sapiens, UniProt Q9Y616)",cell-free assay,competition with immobilised ligand,100%
"Myosin light chain kinase, smooth muscle (MYLK, Homo sapiens, UniProt Q15746)",cell-free assay,competition with immobilised ligand,100%
"Mitogen-activated protein kinase kinase kinase 11 (MAP3K11, Homo sapiens, UniProt Q16584)",cell-free assay,competition with immobilised ligand,88%
"Tyrosine-protein kinase ABL1, phosphorylated (ABL1, Homo sapiens, UniProt P00519, E255K)",binding,competition with immobilised ligand,88%
"RAC-alpha serine/threonine-protein kinase (AKT1, Homo sapiens, UniProt P31749)",cell-free assay,competition with immobilised ligand,100%
"Serine/threonine-protein kinase 38-like (STK38L, Homo sapiens, UniProt Q9Y2H1)",cell-free assay,competition with immobilised ligand,72%
"Tyrosine-protein kinase ABL1, phosphorylated (ABL1, Homo sapiens, UniProt P00519, F317I)",binding,,84%
"Vascular endothelial growth factor receptor 3 (FLT4, Homo sapiens, UniProt P35916)",cell-free assay,competition with immobilised ligand,97%
"Serine/threonine-protein kinase ULK1 (ULK1, Homo sapiens, UniProt O75385)",cell-free assay,competition with immobilised ligand,87%
"Wee1-like protein kinase (WEE1, Homo sapiens, UniProt P30291)",cell-free assay,competition with immobilised ligand,90%
"SRSF protein kinase 3 (SRPK3, Homo sapiens, UniProt Q9UPE1)",cell-free assay,competition with immobilised ligand,100%
"MAP kinase-interacting serine/threonine-protein kinase 1 (MKNK1, Homo sapiens, UniProt Q9BUB5)",cell-free assay,competition with immobilised ligand,75%
"Serine/threonine-protein kinase 32A (STK32A, Homo sapiens, UniProt Q8WU08)",cell-free assay,competition with immobilised ligand,75%

# Series 4
# Target: Eukaryotic initiation factor 4A-I (EIF4A1, Homo sapiens, UniProt P60842, residues 1-406, full length assumed)
# UniProt P60842, sequence (whole entry, looked up): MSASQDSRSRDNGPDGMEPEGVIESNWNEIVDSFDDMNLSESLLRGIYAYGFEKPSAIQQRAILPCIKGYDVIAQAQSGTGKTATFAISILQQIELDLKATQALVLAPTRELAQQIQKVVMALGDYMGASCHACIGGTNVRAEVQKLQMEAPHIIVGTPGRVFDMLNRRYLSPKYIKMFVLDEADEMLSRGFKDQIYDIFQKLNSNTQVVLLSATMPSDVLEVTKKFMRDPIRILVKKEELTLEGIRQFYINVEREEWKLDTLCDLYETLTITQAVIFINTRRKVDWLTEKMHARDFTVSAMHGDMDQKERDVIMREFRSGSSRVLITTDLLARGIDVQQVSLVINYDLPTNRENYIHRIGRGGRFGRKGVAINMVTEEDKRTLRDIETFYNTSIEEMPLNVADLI
# Method: RNA Bind-n-Seq
# Molecule type: RNA
# Matrix: in vitro
# Concentration: 15 pmol
# Setting: 4-mer, random 30-nt RNA, single round
# With: 3 µM DMDA-PatA, 2 mM AMP-PNP
# Relative to: input library
# Reading: higher = stronger binding
Strand,4-mer enrichment [fold]
GUAC,1.3
GACU,0.87
CUAU,0.974
GAAA,0.921
GUAU,1.5
GUCU,1.01
UGUA,1.83
CUCA,0.437

# Series 5
# Organism: Sarcocystis neurona
# Effect on: parasite growth
# Concentration: 10 µM
# Time: 96 h
# Relative to: untreated
SMILES,log2 fold change
CCc1oc2ccccc2c1C(=O)c1cc(Br)c(O)c(Br)c1,-0.0426
CCN(CC)CC(=O)Nc1c(C)cccc1C,0.4
Cc1ccnc2c1NC(=O)c1cccnc1N2C1CC1,0.29

# Single results of other studies
Substance,tested on,assay,system,setting,how to read,quantity,result
indirubin-3′-monoxime,human protein kinase panel,,,"0.5 µM, 300 kinases",higher = more selective,Gini score,0.56
C=CC(=O)N1CCC[C@@H](n2nc(-c3ccc(Oc4ccccc4)cc3)c3c(N)ncnc32)C1,A-375,,,"100 µM, 60 h",,viability,4.81%
CC(C)C[C@@H]1NC(=O)[C@H](C)NC(=O)[C@@H](CC(C)C)NC(=O)[C@H](C)NC(=O)[C@H](CC(C)C)NC(=O)[C@H](CC(C)C)NC(=O)[C@H](CC(C)C)NC1=O,,logD(dd/w) and ALogP,,JT method,,lipophilic permeability efficiency,2.89
CCOC(=O)CC(=O)N1CCSC1COc1ccccc1OC (stereo not shown),A-375,,,"100 µM, 60 h",,viability,104%
Cn1cc(-c2n[nH]c(=O)c3ccccc23)c2ccccc21,,,"mouse, microsomes or S9","2 µM, 0.5 h",,remaining compound,0.0403%
COc1ccc(-c2c(Nc3ccccn3)[nH]c3c(C4=CCCCC4)c(-c4ccccc4)nn3c2=O)cc1,,LC-MS/MS,"human, plasma","oral, 50 mg once daily",,Clast,1090 ng/mL and 1190 ng/mL and 1150 ng/mL

# Some of these lines once more (series 2):
Structure (SMILES),nuclear SOX9 intensity
COC(=O)/C=C/c1cccc(N(Cc2ccc(-c3ccc(N(C)C)cc3)cc2)C(=O)C2CCCCC2)c1,111 % of DMSO
Nc1ccn([C@@H]2O[C@H](CO)[C@@H](O)[C@@H]2O)c(=O)n1,128 % of DMSO and 107 % of DMSO
CCCCN(CCCC)CC(O)c1cc(Cl)cc2c1-c1ccc(Cl)cc1/C2=C/c1ccc(Cl)cc1 (stereo not shown),89.5 % of DMSO
